Experimental data from different studies.
Lines come from different studies, so protocols differ. ± gives the spread as reported.
Organism: Zika virus

| SMILES | test | test system | conditions | scale | endpoint | result |
| --- | --- | --- | --- | --- | --- | --- |
| NCC(=O)NCC(=O)N1Cc2cc(Cl)ccc2CC1c1ccccc1 (stereo not drawn) | viral replication | Vero 76, Cal PL | 72 h | – | EC50 | > 50 µM |
| O=c1c(O)c(-c2ccc(O)c(O)c2)oc2cc(O)cc(O)c12 | viral replication, plaque | MR766, culture supernatant | 500 µM, 48 h p.i. | – | viral load | decreased |
| N#Cc1c(Nc2ccc(F)cc2)n[nH]c1NS(=O)(=O)c1ccc2ccccc2c1 | viral replication | Vero 76, MR766 | – | – | EC50 | > 2.5 µM |
| N#C[C@@]1(n2ccc(N)nc2=O)O[C@H](CO)[C@@H](O)[C@H]1O | viral replication, cell-based | – | – | – | EC50 | > 20 µM |
| Nc1ncnc2c1ncn2[C@@H]1O[C@@H]2COP(=O)(O)O[C@H]3[C@@H](O)[C@H](n4cnc5c(=O)[nH]cnc54)O[C@@H]3COP(=O)(O)O[C@H]2[C@H]1O | upregulated Reactome pathway, RNA sequencing, refers to: Interferon gamma signaling (R-HSA-877300) | HFF-1 | – | reference: ZIKV-infected untreated | fold enrichment | 10.9 |
| NC(=O)c1ncn([C@@H]2O[C@H](CO)[C@@H](O)[C@H]2O)n1 | viral replication | BHK-21, ZIKV | 72 h | – | EC50 | 18 µM |
| C#C[C@@]1(O)[C@H](O)[C@@H](CO)O[C@H]1n1ccc2c(N)ncnc21 | viral replication | Huh-7.5.1, nanoluciferase reporter | 48 h | – | EC50 | 0.494 µM |
| NC(=O)c1ncn([C@@H]2O[C@H](CO)[C@@H](O)[C@H]2O)n1 | viral replication, CCK-8 | Vero C1008 | 10 µM, 96 h | – | inhibition | 37.1 ± 8.76% |
| CC(=O)c1cc(O)c2ccccc2c1O | viral replication | – | – | – | EC50 | 0.9 µM |

A few entries again:
| SMILES | test | test system | conditions | scale | endpoint | result |
| --- | --- | --- | --- | --- | --- | --- |
| C#C[C@@]1(O)[C@H](O)[C@@H](CO)O[C@H]1n1ccc2c(N)ncnc21 | viral replication | Huh-7.5.1, nanoluciferase reporter | 48 h | – | EC50 | 0.494 µM |
